Published values of several laboratories.
Each line is one published result; not all experiments were run side by side. ± marks the error that the study gave.

Molecule	cell line	assay	conditions	IC50
COc1c(-c2coc3cc4c(cc3c2=O)CC(O)C(C)(C)O4)ccc2c1C=CC(C)(C)O2 (centres unmarked)	human primary myometrial cells	calcium mobilisation, inhibitor	–	27 µM
C(=N\Nc1nc(Nc2ccccc2)nc(N2CCOCC2)n1)/c1c[nH]c2ccccc12	mouse Gmnn fl/fl ER-Cre ESCs	cell viability, trypan blue	72 h	1 µM
Fc1ccc2nc(-c3ccc(OCCN4CCOCC4)cc3)[nH]c2c1	DND41	cell growth or viability, MTS	72 h	52.1 µM
COc1ccc(C[C@H]2COC(=O)[C@@H]2Cc2ccc(OCC(=O)NCCC(=O)Nc3ccccc3N)c(OC)c2)cc1OC	Kasumi 1	cell growth or viability, CCK-8	48 h	> 5 µM
COc1ccc(OC)c(/C=C2\CC/C(=C\c3ccc(O)c(OC)c3)C2=O)c1	SGC-7901	cell growth or viability, MTT	72 h	3.9 µM
Fc1cc(-c2nc3ccccc3[nH]2)ccc1OCCN1CCOCC1	DND41	cell growth or viability, MTS	72 h	50 µM
COc1cc(/C=C/C(=O)CC(=O)/C=C/c2ccc(O)c(OC)c2)ccc1O	SGC-7901	cell growth or viability, MTT	72 h	22.5 µM
COc1cc(O)c(Cc2ccc(O)cc2)c2c1-c1ccc(O)cc1CC2	BV-2	NO release, inhibitor, Griess	LPS-stimulated	2.96 µM
COc1cc2ncnc(Nc3ccc(F)c(Cl)c3)c2cc1NC(=O)N/N=C/c1ccc(CN2CCCC2)cc1	NCI-H1975	cell growth or viability, MTT	72 h	16.6 µM
CNC(=O)c1cc(Oc2ccc(NC(=O)Nc3ccc(Cl)c(C(F)(F)F)c3)cc2)ccn1	MHCC97H cells	cell viability, MTT	concentration not given, with: pralatrexate 2	0.02 µM
Nc1c(S(=O)(=O)O)cc(Nc2cccc(S(N)(=O)=O)c2)c2c1C(=O)c1ccccc1C2=O	COS-7 (serum-starved)	Thr308 dephosphorylation	35 min	132 ± 1 µM
C[C@]1([N+](=O)[O-])C(=O)c2cc(Cl)ccc2O[C@@H]1CC(=O)NC12CC3CC(CC(C3)C1)C2	PC-3M	cell growth or viability, SRB	96 h	6.34 µM
COc1cccc2c1C(=O)c1c(O)c3c(c(O)c1C2=O)C[C@@](O)(C(=O)CO)C[C@@H]3O[C@H]1C[C@H](N)[C@H](O)[C@H](C)O1	SK-BR-3	cell growth or viability, CCK-8	–	0.186 µM
c1ccc2[nH]c(-c3ccc(OCc4cn(CCN5CCOCC5)nn4)cc3)nc2c1	DND41	cell growth or viability, MTS	72 h	49.1 µM
CC/C(=C(\c1ccccc1)c1ccc(OCCN(C)CCCCCC(=O)NCCCOc2ccc3[nH]cc(CCNC(C)=O)c3c2)cc1)c1ccccc1	HT-1080	cell survival, MTT	day 9, dosed days 2, 4, 7	14.8 µM
CCCCCCNC(=O)n1cc(F)c(=O)[nH]c1=O	HT-1080	cell growth or viability, MTT	72 h	67 µM
CC(C)n1nc(C#Cc2cccc(NC(=O)c3cccc(C(F)(F)F)c3)c2)c2c(N)ncnc21	Ba/F3 BCR-ABL	cell growth, MTT	48 h	0.008 µM
CCCCCCCCCCCCC/C=C/[C@@H](O)[C@@H](N)COP(=O)(O)O	human primary astrocytes	forskolin-induced cAMP production, agonist, AlphaScreen	with: forskolin 10 µM	0.00117 µM
CN(C)C/C=C/C(=O)Nc1cc2c(Nc3ccc(F)c(Cl)c3)ncnc2cc1O[C@H]1CCOC1	NCI-H1975	cell growth or viability, MTT	72 h	0.49 µM
CC(=O)O[C@@]12CO[C@@H]1C[C@H](O)[C@@]1(C)C(=O)[C@H](O)C3=C(C)[C@@H](OC(=O)[C@H](O)[C@@H](NC(=O)OC(C)(C)C)c4ccccc4)C[C@@](O)([C@@H](OC(=O)c4ccccc4)[C@H]21)C3(C)C	PC-3M	cell growth or viability, SRB	96 h	0.043 µM

Molecule	cell line	assay	conditions	IC50
Fc1cc(-c2nc3ccc(Cl)cc3[nH]2)ccc1OCCN1CCOCC1	DND41	cell growth or viability, MTS	72 h	> 100 µM
C[C@]1([N+](=O)[O-])C(=O)c2c(F)cccc2O[C@@H]1CC(=O)NC12CC3CC(CC(C3)C1)C2	PC-3M	cell growth or viability, SRB	96 h	9.75 µM
CC(C)c1cc(CNc2nc(Nc3cc(C4CC4)[nH]n3)cc(N3CCN(C)CC3)n2)on1	primary CLL cells	caspase-3 activation, flow cytometry	24 h, OP9 stromal co-culture	2.54 µM
COc1ccc(C[C@H]2COC(=O)[C@@H]2Cc2ccc(OCC(=O)NCC(=O)Nc3ccccc3N)c(OC)c2)cc1OC	Kasumi 1	cell growth or viability, CCK-8	48 h	> 5 µM
COc1ccc(/C=C/C(=O)CC(=O)/C=C/c2ccc(OC(=O)C3=CC=C[CH]3[Fe][CH]3C=CC=C3)cc2)cc1OC (centres unmarked)	RKO	cell growth or viability, MTT	–	149 µM
COc1cc2[nH]c(C)c(-c3ccc(-c4ccc(OC(F)(F)F)cc4)cc3)c(=O)c2cc1Cl	HeLa and HCT-116 average	cell viability, MTT	48 h	30 µM
CCNC(=O)Nc1ccc(S(=O)(=O)Oc2cnccc2Br)cc1	HT-1080	cell growth or viability, SRB	48 h	4.1 µM
COc1cc2ncnc(Nc3ccc(F)c(Cl)c3)c2cc1NC(=O)N/N=C/c1ccc(N(C)C)cc1	NCI-H1975	cell growth or viability, MTT	72 h	40.7 µM
O=C(Cc1ccc(F)cc1)Nc1nc2ccccc2n1Cc1ccc(Cl)cc1	MDA-MB-231-HRE-Luc cells	HIF reporter gene, inhibitor	24 h, hypoxia 1% O2	1.58 ± 0.75 µM
O=C(CN1C(=O)SC(=Cc2ccccc2)C1=O)Nc1ccc(C(=O)NC2CCCC2)cc1	HT-29, A549, HCT-116	cell growth, MTT	range over cell lines	9.17 to 47.2 µM
COc1cc(O)c2c(c1)O[C@H](c1ccc(O)cc1)CC2=O	BV-2	TNF-alpha release, ELISA	24 h, with: LPS 10 µg/mL	158 µM
COc1ccc(/C=C/C(=O)CC(=O)/C=C/c2ccc(OC(=O)C3=CC=C[CH]3[Fe][CH]3C=CC=C3)c(OC)c2)cc1OC (centres unmarked)	RKO	cell growth or viability, MTT	–	64.3 µM
COc1ccc(/C=C/CN2CCN(c3ncc(C(=O)NO)cn3)CC2)cc1	HEL	apoptosis induction, annexin V/PI flow cytometry	24 h	0.165 ± 0.00213 µM
C=CC1=C(C)c2cc3[nH]c(cc4nc(cc5[nH]c(cc1n2)c(C)c5CCC(=O)O)C(CCC(=O)O)=C4C)c(C)c3C=C	RPE-1	cell viability, resazurin	48 h, dark	> 100 µM
COc1cc(O)c2c(=O)c(O)c(-c3ccc(O)c(O)c3)oc2c1	BV-2	NO release, Griess	24 h, with: LPS 10 µg/mL	26.4 µM
CCCCCCCCCCCCCC(=O)OC[C@H](COP(=O)([O-])OCC[N+](C)(C)C)OC(=O)CCCCCCCCCCCCC	HT-1080	cell growth or viability, MTT	72 h	20 µM
COc1cc(/C=C/C(=O)CC(=O)/C=C/c2ccc(OC(=O)C3=CC=C[CH]3[Fe][CH]3C=CC=C3)c(OC)c2)ccc1O (centres unmarked)	RKO	cell growth or viability, MTT	–	23.2 µM
navitoclax	human platelets	cell viability, MTS	48 h	0.242 µM
NC1(c2ccc(-c3nc4ccn5c(=O)[nH]nc5c4cc3-c3ccccc3)cc2)CCC1	MDA-MB-231 LINK-A PIP3-BM +/+	AKT phosphorylation, AlphaScreen SureFire, refers to: AKT pSer473 over total AKT	with: EGF 200 nM	16.2 µM
O=C(N/N=C/c1ccc(OCCCN2CCCC2)cc1)Nc1cc2c(Nc3ccc(F)c(Cl)c3)ncnc2cc1O[C@H]1CCOC1	NCI-H1975	cell growth or viability, MTT	72 h	18.6 µM

Molecule	cell line	assay	conditions	IC50
CCN(CC)CCOc1ccc(-c2nc3ccc(Cl)cc3[nH]2)cc1F	DND41	cell growth or viability, MTS	72 h	2.6 µM
CCN1CCC2(CC1)C/C(=N\N=C\c1ccc(N(C)C)cc1)c1ccccc1O2	MCF7, HCT-116, PC-3, A549	cell growth, MTT	range over cell lines	48.5 to 80 µM
CCCNC(=O)Nc1ccc(S(=O)(=O)Oc2cccnc2C(C)C)cc1	HT-1080	cell growth or viability, SRB	48 h	2.3 µM
Cc1ccc(C(CS(=O)(=O)c2ccccc2)=NNc2nc(C)c(N=Nc3cccc(C)c3)s2)cc1	WM 266-4	cell growth or viability, MTT	48 h	3.18 µM
CC(C)Oc1ccc(C(=O)Cn2ccnc2)cc1-n1c(CN2CCN(C(=O)COc3ccc(Cl)cc3)CC2)nc2ccccc2c1=O	DOHH-2	cell viability, CellTiter-Glo	24 h	< 0.1 µM
O=C(/C=C/c1ccc(Cl)cc1)C(=CC1=CC=C[CH]1[Fe][CH]1C=CC=C1)C(=O)/C=C/c1ccc(Cl)cc1 (centres unmarked)	RKO	cell growth or viability, MTT	–	10.5 µM
CC(=O)/C=C(O)/C=C/c1ccc(O)c(O)c1	HCT-116 and S1	MTT	bound	< 10 µM
O=C1c2c(O)ccc(O)c2C(=O)c2c(NCCNCCO)ccc(NCCNCCO)c21	HCT-15	cell growth or viability, XTT	72 h	0.087 µg/mL
O=c1[nH]nc(O)c2c(-c3ccc(Cl)cc3Cl)c3n(c12)CCn1cccc1-3	PC-3	cell growth or viability, MTT	48 h	76.3 µM
CCN(CC)Cc1ccc(/C=N/NC(=O)Nc2cc3c(Nc4ccc(F)c(Cl)c4)ncnc3cc2OC)cc1	NCI-H1975	cell growth or viability, MTT	72 h	76.3 µM
CC[n+]1c(/C=C/C=C2/N(C)c3ccccc3C2(C)C)sc2ccccc21	hiPSC hepatic differentiation phase III	cell viability, CCK-8	48 h	0.77 ± 0.39 µM
CCCn1cnc2ccc(-c3ccc4sc(NC(=O)Nc5ccc(F)cc5)nc4c3)cc2c1=O	NCI-H1975	cell growth or viability, MTT	72 h	0.49 µM
COc1cc2ncnc(Nc3ccc(F)c(Cl)c3)c2cc1NC(=O)N/N=C/c1ccc(CN(C)C)cc1	NCI-H1975	cell growth or viability, MTT	72 h	15.7 µM
Nc1ccn([C@@H]2O[C@H](CO)[C@@H](O)C2(F)F)c(=O)n1	AsPC-1	cell viability, MTT	48 h	11.8 µM
COc1cc(C[C@H]2C(=O)OC[C@@H]2Cc2ccc(OC)c(OC)c2)ccc1O	Kasumi 1	cell growth or viability, CCK-8	48 h	> 30 µM
O=C(N/N=C/c1ccc(CN2CCCC2)cc1)Nc1cc2c(Nc3ccc(F)c(Cl)c3)ncnc2cc1O[C@H]1CCOC1	NCI-H1975	cell growth or viability, MTT	72 h	> 100 µM
Clc1ccc2nc(-c3ccc(OCc4cn(CCN5CCOCC5)nn4)cc3)[nH]c2c1	DND41	cell growth or viability, MTS	72 h	> 100 µM
O=C1C(SCCO)=C(SCCO)C(=O)c2ccccc21	human MSC hMSC-OD1	cell viability, CCK-8	48 h, osteogenic differentiation day 1	5.33 ± 0.6 µM
CCNC(=O)Nc1ccc(S(=O)(=O)Oc2cccnc2C(C)C)cc1	HT-1080	cell growth or viability, SRB	48 h	1 µM
